Measurements of several laboratories.
A part holds a random share of what one study measured. Positions count from the first letter of the parent shown.

Block 1
Target: Histone acetyltransferase KAT6A, both winged helices, GST fusion (KAT6A, Homo sapiens, UniProt Q92794, residues 1-181)
Technique: protein binding microarray
Molecule type: double-stranded DNA, one strand shown
Matrix: in vitro
Tested at: not given
Setting: 8-mer, flanks averaged, mean of 2 arrays, mostly near background
Relative to: not given
Direction: higher = stronger binding
Target sequence (chain): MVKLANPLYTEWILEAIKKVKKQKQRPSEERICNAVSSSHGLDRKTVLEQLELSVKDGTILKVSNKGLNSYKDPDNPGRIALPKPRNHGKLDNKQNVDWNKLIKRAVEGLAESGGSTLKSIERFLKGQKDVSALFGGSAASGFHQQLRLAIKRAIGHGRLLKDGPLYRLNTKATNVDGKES
Strand | E-score
GACCGATA | 0.0361
AATTAGAT | -0.125
AACCGATC | 0.0898
CTAATAAG | -0.114
AGACCGGC | 0.208
GACTATAC | -0.00918
GTGTGCAA | -0.183
CGTGTGAG | -0.0129
CTTCGAAG | -0.153
ACCTCATC | -0.186
AGTCCGCC | 0.11

Block 2
Target: Interferon regulatory factor 7, full length, phosphomimetic (IRF7, Homo sapiens, UniProt Q92985, residues 1-503, S471D/S472D/S475D/S476D/S477D/S483D/S484D/S487D)
Technique: protein-binding microarray
Molecule type: double-stranded DNA, one strand shown
Matrix: in vitro
Tested at: 2200 nM top
Setting: 60-bp whole probe
Together with: salmon DNA 0.4 mg/ml
Relative to: random background probes
Direction: higher = stronger binding
All sequences stand within: GCCTAGCAC … GTCTTGATTCGCTTGACGCTGCTG
Residues (chain): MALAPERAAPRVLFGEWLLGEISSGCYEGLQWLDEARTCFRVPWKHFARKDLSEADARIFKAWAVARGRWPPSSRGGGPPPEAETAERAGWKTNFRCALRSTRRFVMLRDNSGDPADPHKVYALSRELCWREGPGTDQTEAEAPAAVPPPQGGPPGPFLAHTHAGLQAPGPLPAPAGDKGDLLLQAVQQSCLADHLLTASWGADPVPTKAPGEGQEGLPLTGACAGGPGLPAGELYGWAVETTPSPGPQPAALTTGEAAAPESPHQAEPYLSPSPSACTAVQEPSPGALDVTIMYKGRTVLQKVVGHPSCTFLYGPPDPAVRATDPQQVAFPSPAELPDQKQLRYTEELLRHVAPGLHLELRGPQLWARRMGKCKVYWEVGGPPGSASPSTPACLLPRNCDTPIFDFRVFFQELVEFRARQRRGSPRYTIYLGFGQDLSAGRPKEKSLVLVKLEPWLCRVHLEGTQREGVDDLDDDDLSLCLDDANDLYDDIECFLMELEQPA
Strand | fitted relative affinity
TCAGTTTTGTTTTTCATACTGTGCTAG | 4.6 z-score
AACGGTATCCTTTTCCTGACGTGCTAG | 1.51 z-score
TTTGTCATCTATAATGGATATGTGCTA | 0.604 z-score
GTCGGTTTCGGTTTCGGGACGTGCTAG | 16.1 z-score
TCATCTTCACATATAATACTGTGCTAG | 1.48 z-score
GACGGTTTCCCTTCCCTGACGTGCTAG | 4.22 z-score
CTTGCCCACTTCTGTGACAGGTGCTAG | 0.762 z-score
TTAGGTTCCCTCTTCCTTTAGTGCTAG | 1.63 z-score
TTAGGTTTCGACTTTCTGTTAGTGCTA | 7.17 z-score

Block 3
Target: CCNA2, cyclin fold, Cln2 fusion (human)
Technique: yeast growth competition, sequencing
Matrix: yeast
Setting: strong parent motif
Relative to: not given
Direction: higher = stronger binding
Starting sequence: SAMHD1 docking peptide (human); ASKSRVQLFKDDP; partner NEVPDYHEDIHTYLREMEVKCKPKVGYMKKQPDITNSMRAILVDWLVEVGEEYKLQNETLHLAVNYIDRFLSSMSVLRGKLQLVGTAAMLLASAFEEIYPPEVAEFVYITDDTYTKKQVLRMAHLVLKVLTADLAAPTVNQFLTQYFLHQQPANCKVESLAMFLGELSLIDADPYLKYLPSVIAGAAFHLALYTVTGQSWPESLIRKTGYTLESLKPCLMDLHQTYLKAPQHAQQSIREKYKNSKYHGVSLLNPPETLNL
Substitution | normalised enrichment score
ASKSRVQLFKTDP [D11T] | 2.14
ASKMRVQLFKDDP [S4M] | 1.47
ASKSHVQLFKDDP [R5H] | 0.561
ASKHRVQLFKDDP [S4H] | 1.88
ASKSRVQWFKDDP [L8W] | 0.0632
ASKSRVWLFKDDP [Q7W] | 0.53
ASKSRVYLFKDDP [Q7Y] | 0.442
ASKSRVQLFDDDP [K10D] | 1.13
ASKSRFQLFKDDP [V6F] | 0.952
ASKSRVQLFKDQP [D12Q] | 2.76
ASKSRVQLFKDCP [D12C] | 2.65
ASKSRVQLIKDDP [F9I] | 0.576
ASKSRVQMFKDDP [L8M] | 0.456

Mixed results
Molecule | target | test | system | setting | how to read | endpoint | value
PhoQ, residues 284 288 289 292 302 303 AGGCYF | PhoP, residues 12 14 15 18 19 NHFIF (Escherichia coli, UniProt P23836) | Sort-seq, refers to: YFP reporter | E. coli | PhoQ-PhoP variant library, together with: 10 µM Mg2+ | relative to: high Mg2+ state, higher = stronger signaling | fold induction | 19.8

For quick reference, copied from above (block 1):
Strand | E-score
AGTCCGCC | 0.11
GACCGATA | 0.0361
